Measured values of several laboratories.
Each line is one published result; not all experiments were run side by side. ± marks the error that the study gave.

| Molecule | cell line | assay | conditions | IC50 |
| --- | --- | --- | --- | --- |
| C#CC[C@H](N)C(=O)NCC(=O)NCC(=O)N[C@@H](Cc1ccc(O)cc1)C(=O)N[C@@H](CC(N)=O)C(=O)N[C@@H](CC(C)C)C(=O)N[C@@H](CCCNC(=N)N)C(=O)N1CCC[C@H]1C(=O)N[C@@H](CCCNC(=N)N)C(=O)N[C@H](C(=O)N[C@@H](Cc1ccc(O)cc1)C(=O)N[C@@H](CCC(N)=O)C(=O)N1CCC[C@H]1C(=O)N[C@@H](CCC(N)=O)C(=O)N[C@@H](CCCNC(=N)N)C(=O)N[C@@H](Cc1ccc(O)cc1)C(=O)NCC(=O)NCC(N)=O)[C@@H](C)O | A2780cisR | cell growth or viability, MTT | 72 h, drug-resistant strain | > 200 µM |
| C=CCN1CC[C@]23c4c5ccc(O)c4O[C@@H]2/C(=N/N=C2\CC[C@@]4(O)C6Cc7ccc(O)c8c7[C@@]4(CCN6CC=C)[C@@H]2O8)CC[C@@]3(O)C1C5 | HEK293 expressing MOR | cAMP overshoot, inhibitor, HTRF cAMP | added: morphine then naloxone | 0.46 µM |
| O=c1[nH]c2ccccc2n1C1CCN(Cc2ccc(-c3nc4cc5[nH]cnc5cc4nc3-c3ccccc3)cc2)CC1 | HeLa expressing Ub(G76V)-GFP | Ub(G76V)-GFP degradation, inhibitor, cycloheximide chase | – | 3.7 ± 0.9 µM |
| Cc1ccc2[nH]c(C(=O)NC(C)C34CC5CC(CC(C5)C3)C4)cc2c1 (stereo not drawn) | KNS-42 | cell growth or viability, resazurin | 72 h | > 10 µM |
| O=C(Cn1cnc2ccccc2c1=O)Nc1ccccc1O | MDA-MB-231 | cell growth or viability, crystal violet | 48 h | > 100 µM |
| Nc1nc2c(ncn2COCCO)c(=O)[nH]1 | MT4 | cell growth or viability | – | > 150 µM |
| echistatin | U-87 MG | cell adhesion to vitronectin | 2 h | 0.0009 ± 0.00023 µM |
| N.N.[Cl][Pt][Cl] | H1703 | cell viability, MTT | 4 h, added: cimetidine 3 mmol/L | 70 ± 23.1 µM |
| O=C(NCc1ccccc1)c1cc2c(F)cc(F)cc2[nH]1 | KNS-42 | cell growth or viability, resazurin | 72 h | 8.25 µM |
| O=C(Cn1cnc2ccccc2c1=O)Nc1nccs1 | MDA-MB-231 | cell growth or viability, crystal violet | 48 h | > 100 µM |
| COc1cc2c(Oc3ccc4[nH]c(C)cc4c3F)ccnc2cc1OCC1(N)CC1 | MHCC97H | cell growth or viability, MTT | 48 h | 1.75 µM |
| COc1ccc(C[C@H]2NC(=O)/C=C/C[C@@H]([C@H](C)[C@@H](OC(=O)CNC(=O)CCc3cn(CCOCCOCCOCCOCC(=O)NCc4ccc(CN5C(=O)[C@H]6CC(=O)N[C@@H](CCCNC(=N)N)C(=O)NCC(=O)N[C@@H](CC(=O)O)C(=O)NC[C@H]5C(=O)N6)cc4)nn3)[C@@H](Cl)c3ccccc3)OC(=O)[C@H](CC(C)C)OC(=O)C(C)(C)CNC2=O)cc1Cl | M21-L human melanoma (integrin αv-negative) | cell viability, MTT | 2 h treatment plus 70 h | 0.203 ± 0.0277 µM |
| COc1ccc(C[C@H]2NC(=O)/C=C/C[C@@H]([C@H](C)[C@@H](OC(=O)CNC(=O)OCc3cc(NC(=O)CCCc4cn(CCC(=O)NCCCC[C@@H]5NC(=O)[C@@H](Cc6ccccc6)NC(=O)[C@H](CC(=O)O)NC(=O)CNC(=O)[C@H](CCCNC(=N)N)NC5=O)nn4)cc(O[C@@H]4O[C@H](C(=O)O)[C@@H](O)[C@H](O)[C@H]4O)c3)[C@@H](Cl)c3ccccc3)OC(=O)[C@H](CC(C)C)OC(=O)C(C)(C)CNC2=O)cc1Cl | M21 | cytotoxicity, resazurin | 2 h plus 70 h incubation, with β-glucuronidase 2 U/well | 0.308 ± 0.022 µM |
| CC(C)[C@@H]1NC(=O)[C@H](C)OC(=O)[C@@H](C(C)C)NC(=O)[C@@H](C(C)C)OC(=O)[C@H](C(C)C)NC(=O)[C@H](C)OC(=O)[C@@H](C(C)C)NC(=O)[C@@H](C(C)C)OC(=O)[C@H](C(C)C)NC(=O)[C@H](C)OC(=O)[C@@H](C(C)C)NC(=O)[C@@H](C(C)C)OC1=O | U-87 MG | cell growth or viability, SRB | – | 0.03 µM |
| N.N.[Cl][Pt][Cl] | HCC827 | cell growth or viability, MTT | 72 h | 4.76 µM |
| Nc1cccc2c(N)cccc12 | HepG2 | mitochondrial membrane potential, fluorescence plate reader | 5 h | inactive |
| O=C(N=P12CN3CN(CN(C3)C1)C2)c1ccccn1 | DU-145 | cell growth or viability, MTT | 24 h | > 500 µM |
| CC[C@H](C)[C@H](N)C(=O)N[C@@H](CC(C)C)C(=O)N[C@@H](CCCNC(=N)N)C(=O)N[C@@H](Cc1c[nH]c2ccccc12)C(=O)N[C@@H](CO)C(=O)N[C@@H](CCCNC(=N)N)C(=O)N[C@@H](CCCCN)C(=O)N[C@@H](CC(C)C)C(=O)N1CCC[C@H]1C(=O)N[C@@H](CS)C(=O)N[C@H](C(=O)N[C@@H](CO)C(=O)O)C(C)C | SUP-T1 | AKT phosphorylation, inhibitor, phosphoflow cytometry | added: CXCL12 100 ng/mL, 2 min | 2.62 ± 1.4 µM |
| CO/C=C(/C(=O)OC)c1ccccc1Oc1cc(Oc2ccccc2C#N)ncn1 | HEK293T ERR reporter line | cell viability, qHTS | – | 30.6 µM |
| COc1ccc(C[C@H]2NC(=O)/C=C/C[C@@H]([C@H](C)[C@@H](OC(=O)CNC(=O)OCc3ccc(NC(=O)[C@H](C)NC(=O)[C@@H](NC(=O)CCc4cn(CCOCCOCCOCCOCC(=O)NCc5ccc(CN6C(=O)[C@H]7CC(=O)N[C@H](C(=O)O)CC(=O)NCC(=O)N[C@@H](CCCNC(=N)N)C(=O)NC[C@H]6C(=O)N7)cc5)nn4)C(C)C)cc3)[C@@H](Cl)c3ccccc3)OC(=O)[C@H](CC(C)C)OC(=O)C(C)(C)CNC2=O)cc1Cl | M21-L human melanoma (integrin αv-negative) | cell viability, MTT | 2 h treatment plus 70 h | 0.0326 ± 0.003 µM |
| CCCCCc1cc(O)c(C/C=C(\C)CCC=C(C)C)c(O)c1 | SK-OV-3 (HER2-positive) | cell viability, MTT | 72 h | 16.6 µM |

| Molecule | cell line | assay | conditions | IC50 |
| --- | --- | --- | --- | --- |
| Cc1ccc(C(C)C)cc1.[Cl][Ru]([Cl])[PH]12CN3CN(CN(C3)C1)C2 | A2780cisR | cell growth or viability, MTT | 72 h, drug-resistant strain | > 200 µM |
| C[C@H]1[C@H](OC(=O)CCC(=O)Oc2ccc(CCO)cc2)O[C@@H]2O[C@@]3(C)CC[C@H]4[C@H](C)CC[C@@H]1[C@@]24OO3 | SK-MEL-24 | cell viability, MTT | 24 h, added: deferoxamine 20 µM, 1 h before | 2.5 ± 0.6 µM |
| Nc1nc(Cl)c(F)c(Cl)n1 | mouse peritoneal cells | nitric oxide production, refers to: nitrite | 24 h, added: LPS plus IFN-gamma | 2 µM |
| O=C1C[C@H](O)CO1 | RAW264.7 | NO release, inhibitor | LPS-stimulated | 20.9 µM |
| CNC(=O)c1cc(Oc2ccc(NC(=O)Nc3ccc(Cl)c(C(F)(F)F)c3)cc2)ccn1 | MHCC97H | cell growth or viability, MTT | 48 h | 1.1 µM |
| CCCCCCCCCCC[C@@H](C[C@@H]1OC(=O)[C@H]1CCCCCC)OC(=O)[C@H](CC(C)C)NC=O | PANC-1 | colony formation | – | 68 µM |
| CC[C@H](C)[C@@H]1NC(=O)[C@H](CCC(=O)O)NC(=O)[C@H](C)NC(=O)[C@H](CC(C)C)NC(=O)[C@H](CC(C)C)NC(=O)[C@H](C)NC(=O)C2(CCCC=CCCCCCC[C@@](C)(C(=O)N[C@@H](C)C(=O)N[C@@H](CC(N)=O)C(=O)N[C@@H](CC(C)C)C(=O)N[C@@H](CO)C(N)=O)NC1=O)CCCC=CCCC[C@](C)(NC(=O)[C@H](CC(N)=O)NC(=O)[C@H](CCC(=O)O)NC(=O)[C@@H]1CCCN1C(=O)[C@@H](N)CC(N)=O)C(=O)N[C@@H]([C@@H](C)CC)C(=O)N[C@@H](C)C(=O)N[C@@H](CCCCN)C(=O)N2 (stereo partly drawn) | HCT-116 expressing NanoLuc-HaloTag | intracellular peptide delivery, NanoBRET | 24 h, 37 °C, 1% DMSO | 0.093 µM |
| plicamycin | GIST882 | cell viability | 72 h | < 0.07 µM |
| COc1ccc2oc(C(=O)c3cc(OC)c(OC)c(OC)c3)c(N)c2c1 | K562 | cell growth or viability | – | 7.2 µM |
| CC(NC(=O)c1cc2c(Cl)cc(Cl)cc2[nH]1)C12CC3CC(CC(C3)C1)C2 (stereo not drawn) | KNS-42 | cell growth or viability, resazurin | 72 h | > 10 µM |
| COc1ccc(C2=C3C=C(Cl)C(c4ccc(OC)cc4)=[N+]3[B-](F)(F)n3c2cc(Cl)c3-c2ccc(NC(=S)NCCOCCOCCOCCC(=O)N[C@@H](CC(C)C)C(=O)N[C@@H](C)C(=O)N[C@@H](CCCNC(=N)N)C(=O)N[C@@H](CC(C)C)C(=O)N[C@@H](CC(C)C)C(=O)N[C@H](C(N)=O)[C@@H](C)O)cc2)cc1 | HEp-2 | phototoxicity, viability | 24 h after irradiation, added: light 1.5 J/cm2 for 20 min | 74 µM |
| N=C(N)NCCC[C@H](NC(=O)[C@H](Cc1c[nH]c2ccccc12)NC(=O)[C@H](CCC(N)=O)NC(=O)[C@H](Cc1c[nH]c2ccccc12)NC(=O)[C@@H](N)CCCNC(=N)N)C(=O)N[C@@H](Cc1c[nH]c2ccccc12)C(=O)N[C@@H](CCC(N)=O)C(=O)N[C@@H](Cc1c[nH]c2ccccc12)C(=O)N[C@@H](CCCN)C(N)=O | Caco-2 | cell growth or viability, MTT | – | 40 µM |
| N.N.[Cl][Pt][Cl] | MCF-12A | cell growth or viability, resazurin | 96 h | 11.2 µM |
| N.N.[Cl][Pt][Cl] | CCD-18Co colon fibroblasts | cell viability, MTS | 24 h | 83 ± 1.1 µM |
| CC[C@@]1(O)C(=O)OCc2c1cc1n(c2=O)Cc2cc3ccccc3nc2-1 | GL261 | cell growth or viability, CCK-8 | – | 0.737 µM |
| CCCCCCCCCC(=O)N[C@@H](Cc1ccccc1)C(=O)N[C@H](C(=O)NCC(=O)N[C@H](C(=O)N[C@@H](CC(C)C)C(=O)N[C@H](C(=O)N1CCC[C@H]1C(=O)N[C@@H](CC(C)C)C(=O)N[C@@H](C)C(=O)N[C@@H](CC(C)C)C(=O)NCC(=O)N[C@@H](C)C(=O)N[C@@H](CC(C)C)C(=O)N[C@H](C(=O)N[C@@H](CCCCN)C(=O)N[C@@H](CC(C)C)C(=O)N[C@@H](Cc1ccccc1)C(=O)N[C@@H](CCCCN)C(N)=O)[C@@H](C)O)[C@@H](C)CC)[C@@H](C)O)[C@@H](C)CC | K562 | cell growth or viability, CCK-8 | 24 h | 5.76 µM |
| COc1cc(/C=C/C(O)=C/C(=O)/C=C/c2ccc(O)cc2)ccc1O | Hs68 | cell growth or viability, MTT | 48 h | > 50 µg/mL |
| CC(C)c1c(Cl)nc(N)nc1Cl | mouse peritoneal cells | nitric oxide production, Griess | 24 h, added: LPS plus IFN-gamma | 19.6 µM |
| CC(C)[C@H](CO)Nc1nc(Nc2cc(N)cc(Cl)c2)c2ncn(C(C)C)c2n1 | H3255 (EGFR L858R) | cell viability, Alamar Blue | 120 h | > 10 µM |
| CC(C)c1ccc2c(c1)CC[C@H]1[C@](C)(CN)CCC[C@]21C | UACC-903 | cell growth or viability, MTS | 72 h | 1.07 µM |
| CC1(C)[C@@H]2CC[C@]3(C)[C@H](CC[C@@H]4CC=C(O[Si](C)(C)C(C)(C)C)C[C@]43C=N)[C@@]2(C)CCC12OCCO2 | mouse DRG neurons | voltage-gated calcium current, inhibitor, patch clamp | – | 0.29 µM |

Repeated from above:
| Molecule | cell line | assay | conditions | IC50 |
| --- | --- | --- | --- | --- |
| Nc1cccc2c(N)cccc12 | HepG2 | mitochondrial membrane potential, fluorescence plate reader | 5 h | inactive |
| O=C(N=P12CN3CN(CN(C3)C1)C2)c1ccccn1 | DU-145 | cell growth or viability, MTT | 24 h | > 500 µM |
| CC[C@H](C)[C@H](N)C(=O)N[C@@H](CC(C)C)C(=O)N[C@@H](CCCNC(=N)N)C(=O)N[C@@H](Cc1c[nH]c2ccccc12)C(=O)N[C@@H](CO)C(=O)N[C@@H](CCCNC(=N)N)C(=O)N[C@@H](CCCCN)C(=O)N[C@@H](CC(C)C)C(=O)N1CCC[C@H]1C(=O)N[C@@H](CS)C(=O)N[C@H](C(=O)N[C@@H](CO)C(=O)O)C(C)C | SUP-T1 | AKT phosphorylation, inhibitor, phosphoflow cytometry | added: CXCL12 100 ng/mL, 2 min | 2.62 ± 1.4 µM |
| CO/C=C(/C(=O)OC)c1ccccc1Oc1cc(Oc2ccccc2C#N)ncn1 | HEK293T ERR reporter line | cell viability, qHTS | – | 30.6 µM |
| COc1ccc(C[C@H]2NC(=O)/C=C/C[C@@H]([C@H](C)[C@@H](OC(=O)CNC(=O)OCc3ccc(NC(=O)[C@H](C)NC(=O)[C@@H](NC(=O)CCc4cn(CCOCCOCCOCCOCC(=O)NCc5ccc(CN6C(=O)[C@H]7CC(=O)N[C@H](C(=O)O)CC(=O)NCC(=O)N[C@@H](CCCNC(=N)N)C(=O)NC[C@H]6C(=O)N7)cc5)nn4)C(C)C)cc3)[C@@H](Cl)c3ccccc3)OC(=O)[C@H](CC(C)C)OC(=O)C(C)(C)CNC2=O)cc1Cl | M21-L human melanoma (integrin αv-negative) | cell viability, MTT | 2 h treatment plus 70 h | 0.0326 ± 0.003 µM |
| CCCCCc1cc(O)c(C/C=C(\C)CCC=C(C)C)c(O)c1 | SK-OV-3 (HER2-positive) | cell viability, MTT | 72 h | 16.6 µM |
